Assay results gathered from unrelated publications.
Values joined by “and” are separate records of one study, mostly repeats; a detail may differ. ± marks the error that the study gave.
Cell line: Caco-2

Structure (SMILES)	assay	system	setting	how to read	endpoint	value
CCCCn1cc(C(=O)O)c(=O)c2cc(F)c3c(nnn3-c3cccc(Cl)c3)c21	cell growth or viability, SRB				IC50	223 µM
C#CCC(C)OP(=O)(O)Oc1c2c(c(OP(=O)(O)OC(C)CC#C)c3c1C1CC3c3cc4c(cc31)C1CC4c3ccccc31)C1CC2c2cc3c(cc21)C1CC3c2ccccc21 (stereo not shown)	CellTiter-Glo		2 days		CC50	> 300 µM
CCCCn1cc(C(=O)O)c(=O)c2cc(F)c(Nc3ccccc3Cl)c(N)c21	cell growth or viability, SRB				IC50	264 µM
O=P(O)(OCCCc1ccccc1)Oc1c2c(c(OP(=O)(O)OCCCc3ccccc3)c3c1C1CC3c3cc4c(cc31)C1CC4c3ccccc31)C1CC2c2cc3c(cc21)C1CC3c2ccccc21	CellTiter-Glo		2 days		CC50	83.8 µM
Clc1c(Cl)c(Cl)c2c(oc3c(Cl)c(Cl)c(Cl)c(Cl)c32)c1Cl	measured: basolateral amount	Transwell model	0.2 ng/mL, 24 h	relative to: total applied amount	transport fraction	0.2%
C=CC(=O)NCc1ccc(OC(C)(C)C)cc1	resazurin		0.25 to 1 mM		viability	> 85%
CCCCn1cc(C(=O)O)c(=O)c2cc(F)c3c(nnn3-c3ccccc3Cl)c21	cell growth or viability, SRB				IC50	217 µM
Clc1cc2oc3cc(Cl)c(Cl)c(Cl)c3c2cc1Cl	measured: basolateral amount	Transwell model	0.2 ng/mL, 24 h	relative to: total applied amount	transport fraction	4.4%
C=CCCCCOP(=O)(O)Oc1c2c(c(OP(=O)(O)OCCCCC=C)c3c1C1CC3c3cc4c(cc31)C1CC4c3ccccc31)C1CC2c2cc3c(cc21)C1CC3c2ccccc21	CellTiter-Glo		2 days		CC50	171 µM
NCCNc1ccnc2cc(Cl)ccc12					CC50	93.7 ± 25.8 µM
CCCCC[C@@H]1OC(=O)[C@@H](C)N(C)C(=O)[C@H](CCCCC)OC(=O)[C@@H](C)N(C)C(=O)[C@H](CCCCC)OC(=O)[C@@H](C)N(C)C(=O)[C@H](CCCCC)OC(=O)[C@@H](C)N(C)C1=O		HBSS, <1% DMSO	10 µM, 2 h, pH 7.4, apical to basolateral		recovery	29%
O=CN(CCCc1cn(-c2ccc(CN3CCOCC3)cc2)nn1)CCNc1ccnc2cc(Cl)ccc12					CC50	92.2 ± 4.7 µM
CC[C@H](C)[C@H](NC(=O)[C@H](C)NC(=O)[C@H](CCC(=O)O)NC(=O)[C@H](CCC(=O)O)NC(=O)[C@H](CC(C)C)NC(=O)[C@H](CCCCN)NC(=O)[C@H](CCCCN)NC(=O)[C@H](CCSC)NC(=O)[C@H](CCC(=O)O)NC(=O)[C@H](Cc1ccc(O)cc1)NC(=O)[C@H](CCC(=O)O)NC(=O)[C@H](CC(C)C)NC(=O)[C@H](CC(=O)O)NC(=O)[C@H](CC(C)C)NC(=O)[C@H](Cc1ccccc1)NC(=O)[C@@H](NC(=O)[C@@H](NC(=O)[C@@H](N)CC(N)=O)C(C)C)[C@@H](C)O)C(=O)N[C@@H](CCCCN)C(=O)N[C@@H](CCCCN)C(=O)N[C@@H](CC(C)C)C(=O)N[C@@H](CCC(=O)O)C(=O)N[C@@H](CCC(=O)O)C(=O)N[C@@H](CO)C(=O)N[C@@H](Cc1ccc(O)cc1)C(=O)N[C@H](C(=O)N[C@@H](CC(=O)O)C(=O)N[C@@H](CC(C)C)C(=O)N[C@@H](CCCCN)C(=O)N[C@@H](CCC(=O)O)C(=O)N[C@@H](CC(C)C)C(=O)NCC(=O)N[C@H](C(=O)N[C@@H](Cc1ccc(O)cc1)C(=O)N[C@@H](CCC(=O)O)C(=O)N[C@@H](Cc1ccc(O)cc1)C(=O)NCC(=O)N[C@@H](CO)C(=O)NCC(=O)N[C@@H](CSCC(=O)O[C@H]1CC[C@@]2(C)C(=CC[C@H]3[C@@H]4CC[C@H]([C@H](C)CCCC(C)C)[C@@]4(C)CC[C@@H]32)C1)C(N)=O)[C@@H](C)O)[C@@H](C)CC			48 h		CC50	13.8 µM
C=CC(=O)NC1CC(CO)(CO)C1	resazurin		0.25 to 1 mM		viability	> 85%
CCCCn1cc(C(=O)O)c(=O)c2cc(F)c(Nc3cccc(Cl)c3)c(N)c21	cell growth or viability, SRB				IC50	46 µM and 63.6 µM
O=C(O)CCOP(=O)(O)Oc1c2c(c(OP(=O)(O)OCCC(=O)O)c3c1C1CC3c3cc4c(cc31)C1CC4c3ccccc31)C1CC2c2cc3c(cc21)C1CC3c2ccccc21	CellTiter-Glo		2 days		CC50	> 300 µM
C(#Cc1cncc(OC[C@@H]2CCN2)c1)c1ccccc1	Caco-2 permeability		100 µM, 2 h, pH 7.4, added: MK-571 100 µM		Papp A to B	23 ± 0.27 ×10⁻⁶ cm/s
CN(C)CC1CCCCC1(O)c1cccc(O)c1 (stereo not shown)			concentration not given, 3 h, basolateral-to-apical, apical pH 6.8, added: cyclosporine A 10 µM		efflux increase	≤ 26%
CCCCCCCCCCCCCCCCCCOP(=O)(O)Oc1c2c(c(OP(=O)(O)OCCCCCCCCCCCCCCCCCC)c3c1C1CC3c3cc4c(cc31)C1CC4c3ccccc31)C1CC2c2cc3c(cc21)C1CC3c2ccccc21	CellTiter-Glo		2 days		CC50	> 300 µM
CC(C)C[C@H](NC(=O)CNC(=O)[C@@H](N)Cc1c[nH]c2ccccc12)C(=O)N1CCC[C@H]1C(=O)O	MTT		0.5 and 1 mM, 4 h		viability	> 100%
Nc1nc(Nc2ccc(Cl)cc2)nn1S(=O)(=O)c1ccc2ccccc2c1			10 µM, 90 (unit not given), pH 7.4		Papp A-B	0.138 ×10⁻⁶ cm/s
C1=CCCC=CCC1.C1=CCCC=CCC1.[Cl][Hg-]([Cl])[Cl].[Cl][Hg-]([Cl])[Cl].[Pt+][c]1ccccc1P(=Nc1ccccc1)(c1ccccc1)c1ccccc1.[Pt+][c]1ccccc1P(=Nc1ccccc1)(c1ccccc1)c1ccccc1	Caco-2 monolayer transport	HBSS with HEPES	20 µM, 90 min		Papp	4.62 ×10⁻⁶ cm/s
C#CCCCOP(=O)(O)Oc1c2c(c(OP(=O)(O)OCCCC#C)c3c1C1CC3c3cc4c(cc31)C1CC4c3ccccc31)C1CC2c2cc3c(cc21)C1CC3c2ccccc21	CellTiter-Glo		2 days		CC50	> 300 µM
CCCCn1cc(C(=O)O)c(=O)c2cc(F)c(Nc3cccc(Cl)c3)c([N+](=O)[O-])c21	cell growth, SRB		72 h		IC50	117 ± 6.46 µg/mL
O=P(O)(OCc1ccc(-c2ccccc2)cc1)Oc1c2c(c(OP(=O)(O)OCc3ccc(-c4ccccc4)cc3)c3c1C1CC3c3cc4c(cc31)C1CC4c3ccccc31)C1CC2c2cc3c(cc21)C1CC3c2ccccc21	CellTiter-Glo		2 days		CC50	40.8 µM
CCCCn1cc(C(=O)O)c(=O)c2cc(F)c(Nc3ccccc3Cl)c([N+](=O)[O-])c21	cell growth, SRB		72 h		IC50	134 ± 22.4 µg/mL
O=P(O)(O)Oc1c2c(c(OP(=O)(O)O)c3c1C1CC3c3cc4c(cc31)C1CC4c3ccccc31)C1CC2c2cc3c(cc21)C1CC3c2ccccc21	CellTiter-Glo		2 days		CC50	> 300 µM
C=CC(=O)N1CCN(c2ccc(C(N)=O)cn2)CC1	resazurin		0.25 to 1 mM		viability	> 85%

A few entries again:
Structure (SMILES)	assay	system	setting	how to read	endpoint	value
Clc1cc2oc3cc(Cl)c(Cl)c(Cl)c3c2cc1Cl	measured: basolateral amount	Transwell model	0.2 ng/mL, 24 h	relative to: total applied amount	transport fraction	4.4%
C=CCCCCOP(=O)(O)Oc1c2c(c(OP(=O)(O)OCCCCC=C)c3c1C1CC3c3cc4c(cc31)C1CC4c3ccccc31)C1CC2c2cc3c(cc21)C1CC3c2ccccc21	CellTiter-Glo		2 days		CC50	171 µM
NCCNc1ccnc2cc(Cl)ccc12					CC50	93.7 ± 25.8 µM
